# Experimental data of several laboratories.
# Protocols differ between the studies behind these lines.
SMILES,test,system,setting,scale,Cmax
CC(C)[C@H](N)C(=O)NCCCS(=O)(=O)O,,"human, plasma","oral, 340 mg once daily days 8-14, day 14, fasted, capsule",,10400 ng/mL
Cl.[2H]C([2H])([2H])CC(=O)c1cnc(NC(=O)C2CC2)cc1Nc1cccc(-c2ncn(C([2H])([2H])[2H])n2)c1OC,geometric mean,human,"oral, 40 mg twice daily, day 7, fed, liquid, multiple dose",,433 ng/mL
C[C@@H]1CCO[C@H]2Cn3cc(C(=O)NCc4ccc(F)cc4F)c(=O)c(O)c3C(=O)N12,,"human, age ≥1 months, body weight 3 to <6 kg, plasma","oral, 5 mg, dispersible tablet, steady state",,3220 ng/mL
CCOc1c([C@H](C)n2nc(C)c3c(N)ncnc32)cc(Cl)c(F)c1[C@@H]1CNC(=O)C1,,"human, B-cell malignancies, plasma","oral, 20 mg, day 15, geometric mean",,1660 nM
C=CCn1c(=O)c2cnc(Nc3ccc(N4CCN(C)CC4)cc3)nc2n1-c1cccc(C(C)(C)O)n1,,human,"oral, 300 mg once daily, cycle 1 day 17, added: durvalumab 1500 mg IV",geometric mean,1380 nM
CO[C@H]1C[C@@H]2CC[C@@H](C)[C@@](O)(O2)C(=O)C(=O)N2CCCC[C@H]2C(=O)O[C@H]([C@H](C)C[C@@H]2CC[C@@H](OC(=O)NCCOCCOCCOCCOCCOCCOCCOCCOCCC(=O)N3CCc4cc(Cn5nc(-c6ccc7oc(N)nc7c6)c6c(N)ncnc65)ccc4C3)[C@H](OC)C2)C[C@@H](O)[C@H](C)/C=C(\C)[C@@H](O)[C@@H](OC)C(=O)[C@H](C)C[C@H](C)/C=C/C=C/C=C/1C,,"human, plasma","intravenous, 6 mg, cycle 1 day 1, arithmetic mean",,180 ng/mL
COc1cc(N2CCC(N3CCN(C)CC3)CC2)ccc1Nc1ncnc(Nc2ccccc2S(=O)(=O)C(C)C)n1,,"human, plasma","oral, 75 mg, day 1",,137 ng/mL
O=C(O)CCC(=O)O.[2H]C([2H])([2H])Oc1cc(C)c2[nH]ccc2c1CN1CC[C@@H](C2CC2)C[C@H]1c1ccc(C(=O)O)cc1,"LC-MS/MS, geometric mean","human, plasma","100 mg, single dose, fasting",,1590 ng/mL
CNC(=O)c1ccc(-c2cnc3ncc(Cc4ccc5ncccc5c4)n3n2)cc1F,,human severe hepatic impairment,"oral, 200 mg single dose, covariate-adjusted geometric mean",,1910 ng/mL
COc1ncc(-c2nc3c(n2C(C)C)[C@H](c2ccc(Cl)cc2)N(c2cc(Cl)cn(C)c2=O)C3=O)c(OC)n1,LC-MS/MS,"human, plasma","oral, 25 mg, cycle 2 day 1, low-dose arm",,212 ng/mL

# Excerpt of the above:
SMILES,test,system,setting,scale,Cmax
COc1ncc(-c2nc3c(n2C(C)C)[C@H](c2ccc(Cl)cc2)N(c2cc(Cl)cn(C)c2=O)C3=O)c(OC)n1,LC-MS/MS,"human, plasma","oral, 25 mg, cycle 2 day 1, low-dose arm",,212 ng/mL
